Measurements pooled from the literature.
Each line is one published result; not all experiments were run side by side. Values joined by “and” are separate records of one study, mostly repeats; a detail may differ.
Cell line: OVCAR-3

Under growth inhibition, `Cc1ccc(-c2cc(C(F)(F)F)nn2-c2ccc(S(N)(=O)=O)cc2)cc1` is recorded as “no effect” (WST-1; up to 25 µM, 2 days).
`CSc1nc(-c2ccc(Cl)cc2)c2c(NC(=O)c3ccccc3)nnc-2[nH]1` has a cell growth of 112% (SRB; 10 µM, NCI60 single-dose screen; relative to: untreated).
The γH2AX-positive cells of `C=CCn1c(=O)c2cnc(Nc3ccc(N4CCN(C)CC4)cc3)nc2n1-c1ccc2c(n1)[C@@](O)(CC)CC2` is reported as 5.6% (flow cytometry; concentration not given, EdU-positive S phase).
With `C#C[C@@]1(O)[C@@H](CO)O[C@@H](n2cc(Br)c3c(N)ncnc32)[C@@H]1O` the TGI was 4710 nM and 3010 nM (SRB; NCI-60 screen).
`O=C(Nc1nnc2[nH]c(=S)[nH]c(-c3ccc(Cl)cc3)c1-2)c1ccccc1` has a cell growth of 104% (SRB; 10 µM, NCI60 single-dose screen; relative to: untreated).
`CCCN1CCN(c2ccc3[nH]c(-c4ccc5[nH]c(-c6ccc(OCC)c(OCC)c6)nc5c4)nc3c2)CC1` gave a growth percent of -63.7% (SRB; 10 µM, 48 h).
`CCn1cc(-c2cc(Cn3ccoc3=N)cc3c2CCN([C@@H](C)c2cc(OC)ccn2)C3=O)c(C(F)(F)F)n1` has an EC50 of 2270 nM (cell growth, inhibitor; 120 h).
With `CCOc1ccc(-c2nc3cc(-c4nc5cc(N6CCN(C)CC6)ccc5[nH]4)ccc3[nH]2)cc1OCC` the growth percent was -13.3% (SRB; 10 µM, 48 h).
For `NNc1nc(-c2ccc(Cl)cc2)c2c(NC(=O)c3ccccc3)nnc-2[nH]1`, the cell growth was 117% (SRB; 10 µM, NCI60 single-dose screen; relative to: untreated).
For `C#C[C@@]1(O)[C@@H](CO)O[C@@H](n2cc(Cl)c3c(N)ncnc32)[C@@H]1O`, the TGI was 1600 nM and 2010 nM (SRB; NCI-60 screen).
With `CCOC(=O)CSc1nc(-c2ccc(Cl)cc2)c2c(NC(=O)c3ccccc3)nnc-2[nH]1` the cell growth was 100% (SRB; 10 µM, NCI60 single-dose screen; relative to: untreated).
With `CCCN1CCN(c2ccc3nc(-c4ccc5nc(-c6cc(OC)ccc6OC)[nH]c5c4)[nH]c3c2)CC1` the growth percent was 122% (SRB; 10 µM, 48 h).
For `O=C(Nc1nnc2n3c(=S)[nH][nH]c3nc(-c3ccc(Cl)cc3)c1-2)c1ccccc1`, the cell growth was 118% (SRB; 10 µM, NCI60 single-dose screen; relative to: untreated).
For `CCCCN1CCN(c2ccc3[nH]c(-c4ccc5[nH]c(-c6ccc(C(F)(F)F)cc6)nc5c4)nc3c2)CC1`, the growth percent was -96.7% (SRB; 10 µM, 48 h).
With `CCN(CC)c1ccc(C=NNC(=O)CSc2nc3ccccc3c(=O)n2Cc2ccc(S(N)(=O)=O)cc2)c(O)c1` the TGI was over 100000 nM (NCI five-dose screen).
`CCCCN1CCN(c2ccc3[nH]c(-c4ccc5[nH]c(-c6ccc(OCC)c(OCC)c6)nc5c4)nc3c2)CC1` gave a growth percent of -87.3% (SRB; 10 µM, 48 h).
`O=C1NCCc2[nH]c(-c3ccncc3)cc21` gave an IC50 of 2520 nM (MTS; NCI60 panel).
`Cn1cncc1C1=CN(c2ncnc3[nH]cnc23)CCS1` gave a TGI of 120000 nM (ovarian cancer).
The EC50 of `CCn1cc(-c2cc(Cn3ccnc3)cc3c2CCN([C@H](c2cc(OC)ccn2)C2CC2)C3=O)c(C(F)(F)F)n1` is reported as 2320 nM (cell growth, inhibitor; 120 h).
With `CCCN1CCN(c2ccc3[nH]c(-c4ccc5[nH]c(-c6ccc(C(F)(F)F)cc6)nc5c4)nc3c2)CC1` the growth percent was -96.9% (SRB; 10 µM, 48 h).
For `Cc1n[nH]c2nc(-c3ccc(Cl)cc3)c3c(NC(=O)c4ccccc4)nnc-3n12`, the cell growth was 117% (SRB; 10 µM, NCI60 single-dose screen; relative to: untreated).

Repeated from above:
With `CCN(CC)c1ccc(C=NNC(=O)CSc2nc3ccccc3c(=O)n2Cc2ccc(S(N)(=O)=O)cc2)c(O)c1` the TGI was over 100000 nM (NCI five-dose screen).
`CCCCN1CCN(c2ccc3[nH]c(-c4ccc5[nH]c(-c6ccc(OCC)c(OCC)c6)nc5c4)nc3c2)CC1` gave a growth percent of -87.3% (SRB; 10 µM, 48 h).
